Assay results collected from several papers.
A part holds a random share of what one study measured.
Chain of UniProt Q15835 (whole entry, looked up): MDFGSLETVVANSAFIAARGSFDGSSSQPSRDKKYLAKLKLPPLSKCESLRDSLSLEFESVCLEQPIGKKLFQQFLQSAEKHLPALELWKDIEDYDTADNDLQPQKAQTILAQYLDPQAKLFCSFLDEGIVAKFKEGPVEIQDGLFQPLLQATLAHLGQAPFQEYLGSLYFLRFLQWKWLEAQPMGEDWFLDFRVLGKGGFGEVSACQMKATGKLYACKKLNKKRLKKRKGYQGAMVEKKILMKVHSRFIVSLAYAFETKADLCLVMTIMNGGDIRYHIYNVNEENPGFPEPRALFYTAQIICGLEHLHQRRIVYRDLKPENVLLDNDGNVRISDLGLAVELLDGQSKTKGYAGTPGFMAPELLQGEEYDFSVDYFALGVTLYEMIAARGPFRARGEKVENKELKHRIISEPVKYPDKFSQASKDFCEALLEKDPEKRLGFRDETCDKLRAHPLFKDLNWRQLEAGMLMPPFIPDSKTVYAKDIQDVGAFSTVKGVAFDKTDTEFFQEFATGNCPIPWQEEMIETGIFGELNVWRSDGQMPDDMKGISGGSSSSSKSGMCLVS
Chain of UniProt Q16816 (whole entry, looked up): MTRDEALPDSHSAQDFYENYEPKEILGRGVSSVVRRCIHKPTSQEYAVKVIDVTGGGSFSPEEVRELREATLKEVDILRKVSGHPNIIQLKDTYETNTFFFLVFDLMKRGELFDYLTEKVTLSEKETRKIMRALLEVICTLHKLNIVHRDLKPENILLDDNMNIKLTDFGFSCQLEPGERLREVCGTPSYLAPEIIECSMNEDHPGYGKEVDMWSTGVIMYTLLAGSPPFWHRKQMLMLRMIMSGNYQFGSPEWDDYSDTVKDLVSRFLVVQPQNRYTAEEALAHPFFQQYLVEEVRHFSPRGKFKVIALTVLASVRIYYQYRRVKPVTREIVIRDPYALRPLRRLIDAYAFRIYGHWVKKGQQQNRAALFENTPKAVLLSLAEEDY
Chain of UniProt Q9H4A3 (whole entry, looked up): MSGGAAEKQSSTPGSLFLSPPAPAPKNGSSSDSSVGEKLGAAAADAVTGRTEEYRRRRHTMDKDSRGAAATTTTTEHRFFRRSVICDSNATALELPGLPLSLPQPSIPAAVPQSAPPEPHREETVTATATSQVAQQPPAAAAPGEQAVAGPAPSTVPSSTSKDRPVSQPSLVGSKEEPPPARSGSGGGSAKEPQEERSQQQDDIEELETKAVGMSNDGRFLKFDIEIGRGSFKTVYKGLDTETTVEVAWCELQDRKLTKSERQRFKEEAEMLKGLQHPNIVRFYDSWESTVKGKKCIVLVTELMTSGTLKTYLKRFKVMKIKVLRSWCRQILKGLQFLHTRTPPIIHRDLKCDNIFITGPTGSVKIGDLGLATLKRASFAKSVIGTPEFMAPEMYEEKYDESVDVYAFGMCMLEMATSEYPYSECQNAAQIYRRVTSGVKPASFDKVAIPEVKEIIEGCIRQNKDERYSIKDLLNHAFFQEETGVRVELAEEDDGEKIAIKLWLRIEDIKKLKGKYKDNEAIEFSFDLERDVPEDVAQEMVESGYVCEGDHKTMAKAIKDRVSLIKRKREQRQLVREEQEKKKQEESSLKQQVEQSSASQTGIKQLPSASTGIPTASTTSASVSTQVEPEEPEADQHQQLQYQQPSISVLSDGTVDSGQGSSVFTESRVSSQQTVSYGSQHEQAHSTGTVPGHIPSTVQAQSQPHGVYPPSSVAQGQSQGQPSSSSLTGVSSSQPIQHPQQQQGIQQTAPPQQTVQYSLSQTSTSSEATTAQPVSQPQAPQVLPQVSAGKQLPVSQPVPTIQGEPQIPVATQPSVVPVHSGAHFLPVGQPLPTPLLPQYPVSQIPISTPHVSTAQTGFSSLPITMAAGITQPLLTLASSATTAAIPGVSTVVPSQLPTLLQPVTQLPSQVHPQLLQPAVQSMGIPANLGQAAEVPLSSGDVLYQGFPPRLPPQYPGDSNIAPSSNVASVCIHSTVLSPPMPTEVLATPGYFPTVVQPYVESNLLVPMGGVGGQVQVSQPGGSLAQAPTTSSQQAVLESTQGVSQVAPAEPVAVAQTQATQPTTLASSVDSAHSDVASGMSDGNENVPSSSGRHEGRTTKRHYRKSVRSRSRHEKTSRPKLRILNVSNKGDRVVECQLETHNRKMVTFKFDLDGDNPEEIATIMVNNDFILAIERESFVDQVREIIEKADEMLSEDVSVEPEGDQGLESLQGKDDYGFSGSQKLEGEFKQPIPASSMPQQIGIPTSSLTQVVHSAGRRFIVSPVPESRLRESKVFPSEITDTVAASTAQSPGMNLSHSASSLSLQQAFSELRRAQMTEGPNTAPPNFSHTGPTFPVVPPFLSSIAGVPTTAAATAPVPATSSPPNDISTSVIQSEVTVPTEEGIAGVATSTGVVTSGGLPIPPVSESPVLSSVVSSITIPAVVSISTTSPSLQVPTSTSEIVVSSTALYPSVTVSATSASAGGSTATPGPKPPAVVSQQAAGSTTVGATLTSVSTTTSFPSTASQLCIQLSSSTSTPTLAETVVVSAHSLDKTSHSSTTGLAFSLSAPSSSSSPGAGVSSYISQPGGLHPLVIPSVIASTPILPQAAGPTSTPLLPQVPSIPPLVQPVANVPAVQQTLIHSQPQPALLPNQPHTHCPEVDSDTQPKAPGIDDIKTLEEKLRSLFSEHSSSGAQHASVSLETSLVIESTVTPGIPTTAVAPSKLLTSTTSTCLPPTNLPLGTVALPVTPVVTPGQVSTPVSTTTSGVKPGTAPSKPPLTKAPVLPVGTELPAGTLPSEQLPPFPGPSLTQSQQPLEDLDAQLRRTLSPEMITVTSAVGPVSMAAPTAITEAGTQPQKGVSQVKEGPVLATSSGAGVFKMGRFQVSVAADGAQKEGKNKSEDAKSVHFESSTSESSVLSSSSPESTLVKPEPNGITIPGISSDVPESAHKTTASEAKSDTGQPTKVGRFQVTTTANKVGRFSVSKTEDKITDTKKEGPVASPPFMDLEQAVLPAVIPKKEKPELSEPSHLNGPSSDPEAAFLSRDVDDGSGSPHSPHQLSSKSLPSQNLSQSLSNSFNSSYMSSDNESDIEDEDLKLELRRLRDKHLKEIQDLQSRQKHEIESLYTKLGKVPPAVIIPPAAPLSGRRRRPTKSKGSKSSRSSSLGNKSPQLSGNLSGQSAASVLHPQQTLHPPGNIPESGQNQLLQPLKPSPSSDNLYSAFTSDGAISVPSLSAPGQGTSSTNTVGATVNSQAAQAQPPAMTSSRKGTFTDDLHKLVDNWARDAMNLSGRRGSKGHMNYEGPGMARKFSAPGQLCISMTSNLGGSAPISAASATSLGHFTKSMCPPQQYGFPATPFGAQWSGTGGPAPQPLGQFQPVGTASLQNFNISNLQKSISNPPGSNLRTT
Chain of UniProt P41743 (whole entry, looked up): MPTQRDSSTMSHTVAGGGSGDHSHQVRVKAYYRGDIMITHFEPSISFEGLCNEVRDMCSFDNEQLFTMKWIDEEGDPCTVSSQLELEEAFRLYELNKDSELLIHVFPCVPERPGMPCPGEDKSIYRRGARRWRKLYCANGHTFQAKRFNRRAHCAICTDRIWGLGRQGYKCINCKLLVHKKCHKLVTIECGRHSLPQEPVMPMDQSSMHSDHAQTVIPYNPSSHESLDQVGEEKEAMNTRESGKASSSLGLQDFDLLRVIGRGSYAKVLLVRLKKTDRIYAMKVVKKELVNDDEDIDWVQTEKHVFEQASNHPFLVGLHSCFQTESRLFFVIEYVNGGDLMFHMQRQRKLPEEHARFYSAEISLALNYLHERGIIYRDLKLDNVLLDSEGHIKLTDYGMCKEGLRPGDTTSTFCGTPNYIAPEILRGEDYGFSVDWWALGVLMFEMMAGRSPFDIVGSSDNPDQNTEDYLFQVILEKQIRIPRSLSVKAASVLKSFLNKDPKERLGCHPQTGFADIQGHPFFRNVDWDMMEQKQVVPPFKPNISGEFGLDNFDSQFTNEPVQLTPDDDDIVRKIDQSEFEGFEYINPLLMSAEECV
Chain of UniProt Q9BRS2 (whole entry, looked up): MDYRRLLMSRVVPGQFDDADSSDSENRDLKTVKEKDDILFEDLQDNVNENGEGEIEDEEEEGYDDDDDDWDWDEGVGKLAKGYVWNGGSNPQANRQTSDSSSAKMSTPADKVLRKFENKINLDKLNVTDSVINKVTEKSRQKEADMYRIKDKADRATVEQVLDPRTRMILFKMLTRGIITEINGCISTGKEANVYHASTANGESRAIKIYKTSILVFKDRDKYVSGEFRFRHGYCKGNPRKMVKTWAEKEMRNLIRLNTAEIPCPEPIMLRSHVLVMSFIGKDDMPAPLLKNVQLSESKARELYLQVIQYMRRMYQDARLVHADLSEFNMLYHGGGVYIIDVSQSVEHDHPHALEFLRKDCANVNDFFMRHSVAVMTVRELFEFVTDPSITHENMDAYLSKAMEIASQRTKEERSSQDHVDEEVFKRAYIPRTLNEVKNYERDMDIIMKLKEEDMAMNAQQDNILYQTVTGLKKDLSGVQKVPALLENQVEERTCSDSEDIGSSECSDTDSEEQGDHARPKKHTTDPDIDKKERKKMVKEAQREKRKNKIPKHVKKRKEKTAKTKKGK

Study 1
Cell line: mouse MPNST tumor cells
Method: high-content immunofluorescence imaging
Measured: nuclear SOX9
Concentration: 10 µM
Time: 12 h
Setting: mean of 2 replicates
Baseline: DMSO control
Direction: higher = more nuclear SOX9
Quantity: nuclear SOX9 intensity
OC(CCN1CCCCC1)(c1ccccc1)C1CC2C=CC1C2 (centres unmarked): 121 % of DMSO
CCCCCCN(CCCCCC)C(=O)Cc1c(-c2ccc(Cl)cc2)[nH]c2ccc(Cl)cc12: 90.5 % of DMSO
COc1cc(C)c(/C=C/C(C)=C/C=C/C(C)=C/C(=O)O)c(C)c1C: 112 % of DMSO
NCc1ccccc1CC(=O)N[C@@H]1C(=O)N2C(C(=O)O)=C(CSc3nnnn3CC(=O)O)CS[C@H]12: 101 % of DMSO
Cc1ccc(O)c(NC(=O)CCc2ccccc2)c1: 80.2 % of DMSO
Cc1nc(C)c(Cl)c(O)c1Cl: 90.5 % of DMSO
COc1ccc(S(=O)(=O)Nc2c(C)cc(C)cc2C)cc1: 112 % of DMSO
Nc1nc(Cl)nc2c1ncn2[C@H]1C[C@H](O)[C@@H](CO)O1: 112 % of DMSO
Cc1nc(Nc2cnn(C3CCNCC3)c2)nc2c1N(C)C(=O)c1cc3ccccc3cc1N2C: 205 % of DMSO
CCCCOc1nc(N)c2[nH]c(=O)n(Cc3cccc(CC(=O)OC)c3)c2n1: 92.3 % of DMSO
O=C1c2ccccc2S(=O)(=O)N1CCCCN1CCN(c2ncccn2)CC1: 102 % of DMSO
CN(C)CCCN1c2ccccc2Sc2ccccc21: 142 % of DMSO
O=C(Nc1ccc(C(F)(F)F)cn1)N1CCN(c2ncccc2C(F)(F)F)CC1: 118 % of DMSO
c1ccc(Oc2nc(NC3CCCCC3)c3[nH]cnc3n2)cc1: 136 % of DMSO
CCC(c1ccc(F)c(F)c1)n1c(C(=O)OC)c(-c2ccno2)[nH]c1=S (centres unmarked): 95.6 % of DMSO
COCCCOc1ccnc(C[S+]([O-])c2nc3ccccc3[nH]2)c1C (centres unmarked): 92.3 % of DMSO
c1ccc2c(Oc3nc(Nc4ccc(N5CCOCC5)cc4)c4ncn(C5CCCCC5)c4n3)cccc2c1: 172 % of DMSO

Study 2
SMILES: CCOCCn1cc(C(=O)Nc2ccc(-n3nc(-c4cccnc4)cc3C(F)(F)F)cn2)ccc1=O
Method: competition with immobilised ligand
Concentration: 1 µM
Quantity: remaining binding
EPHA4 (Homo sapiens, UniProt P54764); cell-free assay: 91%
FGR (Homo sapiens, UniProt P09769); cell-free assay: 100%
CDKL2 (Homo sapiens, UniProt Q92772); cell-free assay: 100%
DCLK1 (Homo sapiens, UniProt O15075); cell-free assay: 83%
GRK1 (Homo sapiens, UniProt Q15835); cell-free assay: 74%
TRPM6 (Homo sapiens, UniProt Q9BX84); cell-free assay: 73%
ALK (Homo sapiens, UniProt Q9UM73, L1196M); cell-free assay: 73%
PRKCE (Homo sapiens, UniProt Q02156); cell-free assay: 100%
PRKAA1 (Homo sapiens, UniProt Q13131); cell-free assay: 100%
TLK2 (Homo sapiens, UniProt Q86UE8); cell-free assay: 100%
PIP4K2C (Homo sapiens, UniProt Q8TBX8); cell-free assay: 100%
WNK1 (Homo sapiens, UniProt Q9H4A3); cell-free assay: 82%
FLT3 (Homo sapiens, UniProt P36888, F691L/ITD); cell-free assay: 56%
Tyrosine-protein kinase ABL1, non-phosphorylated (ABL1, Homo sapiens, UniProt P00519, F317I); binding: 74%
PRKCI (Homo sapiens, UniProt P41743); cell-free assay: 73%
eIF-2-alpha kinase GCN2, C-terminal kinase domain (EIF2AK4, Homo sapiens, UniProt Q9P2K8, S808G); cell-free assay: 72%
MUSK (Homo sapiens, UniProt O15146); cell-free assay: 99%
RIOK1 (Homo sapiens, UniProt Q9BRS2); cell-free assay: 100%
MAK (Homo sapiens, UniProt P20794); cell-free assay: 89%

Study 3
Target: Calcium/calmodulin-dependent protein kinase type II subunit alpha (CAMK2A, Homo sapiens, UniProt Q9UQM7)
Chain of UniProt Q9UQM7 (whole entry, looked up): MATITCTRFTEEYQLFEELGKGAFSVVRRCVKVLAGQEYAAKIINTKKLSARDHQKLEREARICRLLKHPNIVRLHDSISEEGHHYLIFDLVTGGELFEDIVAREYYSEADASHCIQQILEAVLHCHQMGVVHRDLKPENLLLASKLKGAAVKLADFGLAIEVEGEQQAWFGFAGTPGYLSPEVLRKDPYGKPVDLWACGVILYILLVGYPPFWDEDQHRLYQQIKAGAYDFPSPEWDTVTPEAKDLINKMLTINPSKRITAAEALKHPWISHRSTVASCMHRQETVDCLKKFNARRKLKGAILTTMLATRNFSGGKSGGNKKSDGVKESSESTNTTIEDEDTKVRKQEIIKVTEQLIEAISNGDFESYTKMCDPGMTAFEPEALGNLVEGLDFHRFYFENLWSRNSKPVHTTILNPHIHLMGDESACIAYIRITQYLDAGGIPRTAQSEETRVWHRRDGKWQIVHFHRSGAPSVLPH
Read-out: enzyme activity
Mode: inhibitor
Concentration: 10 µM
Quantity: inhibition
NCCCCN: -12%
C[C@@H]1NC(=O)CNC1=O: 6%
Cn1c[n+]([C@@H]2O[C@H](CO)[C@@H](O)[C@H]2O)c2nc(N)[nH]c(=O)c21: -26%
CC1(C)CC[C@]2(C(=O)O)CC[C@]3(C)C(=CC[C@@H]4[C@@]5(C)C[C@@H](O)[C@H](O)[C@@](C)(CO)[C@@H]5[C@H](O)C[C@]43C)[C@@H]2C1: -23%
C[C@H](CC[C@@H](O)C(C)(C)O)[C@H]1CC[C@@]2(C)[C@@H]3CC=C4[C@@H](CC[C@H](O)C4(C)C)[C@]3(C)[C@H](O)C[C@]12C: -92%
Nc1ccc(/N=N/c2ccccc2)c(N)n1: 2%
Cc1cccs1: 8%
N[C@@H](Cc1cc(I)c(O)c(I)c1)C(=O)O: -17%
CC(C(=O)O)c1ccc(-c2ccccc2)c(F)c1 (centres unmarked): -1%
O=S(=O)(O)CCO: 15%
C[C@@H]1C[C@H]2[C@@H]3C[C@H](F)C4=CC(=O)C=C[C@]4(C)[C@@]3(F)[C@@H](O)C[C@]2(C)[C@@]1(O)C(=O)CO: -8%
CC/C=C/CC1C(=O)CCC1CC(=O)OC (centres unmarked): -8%
C=CC(=O)N1CCC[C@@H](n2nc(-c3ccc(Oc4ccccc4)cc3)c3c(N)ncnc32)C1 (racemic): -0.04%
O=C(O)[C@@H]1CCCCN1: 22%
COc1cc2oc(=O)cc(-c3ccccc3)c2cc1O: -49%
C[C@H]1[C@H](C)CC[C@]2(C)CC[C@]3(C)C(=CC(=O)[C@@H]4[C@@]5(C)CC[C@@H](O)[C@](C)(C(=O)O)[C@@H]5CC[C@]43C)[C@H]12: -19%
Nc1nc(F)nc2c1ncn2[C@@H]1O[C@H](CO)[C@@H](O)[C@@H]1O: -1%

Study 4
Compound: O=c1c(-c2ccc(F)cc2)c(-c2ccncc2)[nH]n1-c1ccc(Cl)cc1
Read-out: enzyme activity
Mode: inhibitor
Concentration: 0.5 µM
Baseline: control
Quantity: remaining activity
EPHB4 (Homo sapiens, UniProt P54760): 97.2%
STK16 (Homo sapiens, UniProt O75716): 100%
STK17A (Homo sapiens, UniProt Q9UEE5): 105%
CAMK2B (Homo sapiens, UniProt Q13554): 93.7%
PHKG1 (Homo sapiens, UniProt Q16816): 94.1%
EPHB1 (Homo sapiens, UniProt P54762): 90.5%
SRMS (Homo sapiens, UniProt Q9H3Y6): 104%
RPS6KA5 (Homo sapiens, UniProt O75582): 93.5%
PDPK1 (Homo sapiens, UniProt O15530): 104%
AXL (Homo sapiens, UniProt P30530): 113%
DYRK3 (Homo sapiens, UniProt O43781): 82.7%
PRKACG (Homo sapiens, UniProt P22612): 91.8%

Some of these lines once more (study 4):
EPHB4 (Homo sapiens, UniProt P54760): 97.2%
STK16 (Homo sapiens, UniProt O75716): 100%
STK17A (Homo sapiens, UniProt Q9UEE5): 105%
CAMK2B (Homo sapiens, UniProt Q13554): 93.7%
PHKG1 (Homo sapiens, UniProt Q16816): 94.1%
